Measurements collected from several papers.
A part holds a random share of what one study measured. Substitutions count along the parent as printed.

Set 1
Target: Ras GTPase-activating protein-binding protein 1, RRM domain (G3BP1, Homo sapiens, UniProt Q13283)
Chain of UniProt Q13283 (whole entry, looked up): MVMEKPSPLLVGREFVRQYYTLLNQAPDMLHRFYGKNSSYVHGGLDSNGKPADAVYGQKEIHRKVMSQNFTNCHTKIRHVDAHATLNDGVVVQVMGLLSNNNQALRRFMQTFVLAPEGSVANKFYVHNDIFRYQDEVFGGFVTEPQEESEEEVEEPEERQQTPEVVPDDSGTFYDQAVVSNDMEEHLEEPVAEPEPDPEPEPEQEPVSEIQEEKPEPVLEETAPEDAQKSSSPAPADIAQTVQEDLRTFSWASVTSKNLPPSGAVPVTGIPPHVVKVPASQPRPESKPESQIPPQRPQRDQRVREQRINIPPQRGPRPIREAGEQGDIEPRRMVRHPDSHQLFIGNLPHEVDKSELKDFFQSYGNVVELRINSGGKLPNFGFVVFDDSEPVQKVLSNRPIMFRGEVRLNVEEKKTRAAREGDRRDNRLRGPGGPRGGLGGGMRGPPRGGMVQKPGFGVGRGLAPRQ
Method: RNA Bind-n-Seq
Form: RNA
Matrix: in vitro
Tested at: 1 µM
Notes: whole 134-nt RNA, ends assumed
With: 150 mM KCl
Reference: input library
Reading: higher = stronger binding
Constant ends, left off below: GGGAGUUCUACAGUCCGACGAUC … UGGAAUUCUCGGGUGUCAAGG
| Sequence | log2 enrichment |
| --- | --- |
| AAGUCCUGUGCUACACAUCGUAUGUACCGAAUCGGGGCCCCGGCCCCGGCCCCGGGGAAAGUAUUAUGUUACGCCGUUCGGAUCUGCACU | -0.819 |
| CUGUGCUACACAUCGUAUGUACCGAAUCGGGGAAAAAAAGGGGAAAAAAAGGAAAAAAAGGGAAAGUAUUAUGUUACGCCGUUCGGAUCU | 0.147 |
| UUCACAGGUAAGUGGGGCAGUGUCCGGACCAGUGGACGCAGCAGUGGCCUUGGCACCGAUGUGGGCUCCCGGCUAGCUGGCAGAGACGCG | -0.549 |
| UAACUUUAGAGGCGGAUCUGAUGGAUAUGGCAGUGGACGUGGAUUUGGGGAUGGCUAUAAUGGGUAUGGAGGAGGACCUGGAGGUGGCAA | -0.863 |
| ACCAUGCAGGUGGGCAUCUUUGGGAAGUGGGGCAAGGGGGGGAUAGGGAGGGGGGUAACACUUUGUGAACAGGUGGUCCCAGGUCGUUUC | 1.04 |
| GUCCUGUGCUACACAUCGUAUGUACCGAAUCGGGGCCCCGGGGCCCCGGGGCCCCGGGGAAAGUAUUAUGUUACGCCGUUCGGAUCUGCA | -0.859 |
| UAACUUUAGAGGAGGAUCUGAUGGAUAUGGCAGUGGACGUGGAUUUGGGGAUGGCUAUAAUGGGUAUGGAGGAGGAUCUGGAGGUGGCAA | -0.264 |
| CCUGUGCUACACAUCGUAUGUACCGAAUCGGGUUUUUGGGAAAAAAAGGGAAAAAAAGGGAAAGUAUUAUGUUACGCCGUUCGGAUCUGC | -0.178 |

Set 2
Target: Eukaryotic initiation factor 4A-I (EIF4A1, Homo sapiens, UniProt P60842, residues 1-406, full length assumed)
Chain of UniProt P60842 (whole entry, looked up): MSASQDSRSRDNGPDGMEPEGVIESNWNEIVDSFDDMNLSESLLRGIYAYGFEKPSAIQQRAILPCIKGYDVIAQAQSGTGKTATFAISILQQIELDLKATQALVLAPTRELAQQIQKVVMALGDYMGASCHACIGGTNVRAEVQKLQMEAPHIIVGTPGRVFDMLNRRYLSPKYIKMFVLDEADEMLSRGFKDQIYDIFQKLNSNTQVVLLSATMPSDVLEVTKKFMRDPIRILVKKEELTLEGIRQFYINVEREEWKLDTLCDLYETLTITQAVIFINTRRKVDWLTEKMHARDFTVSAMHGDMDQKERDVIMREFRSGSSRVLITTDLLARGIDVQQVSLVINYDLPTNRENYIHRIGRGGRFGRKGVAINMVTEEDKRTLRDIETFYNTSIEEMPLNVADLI
Method: RNA Bind-n-Seq
Form: RNA
Matrix: in vitro
Tested at: 15 pmol
Notes: 4-mer, random 30-nt RNA, single round
With: DMSO vehicle, 2 mM AMP-PNP
Reference: input library
Reading: higher = stronger binding
| Sequence | 4-mer enrichment |
| --- | --- |
| CUAA | 0.859 fold |
| CACA | 0.911 fold |
| CCGC | 1.62 fold |
| CAAG | 1.26 fold |
| GGAG | 1.14 fold |
| ACUC | 1.1 fold |
| GUGA | 0.939 fold |
| AUGA | 1.07 fold |

Set 3
Target: PABPC1L2, full length, GST fusion (mouse, UniProt A0ABA7IW68)
Method: RNAcompete
Form: RNA
Matrix: in vitro
Tested at: 20 nM
Notes: 7-mer, probes averaged, single round
Reference: mean of 7-mers
Reading: higher = stronger binding
Target sequence (chain): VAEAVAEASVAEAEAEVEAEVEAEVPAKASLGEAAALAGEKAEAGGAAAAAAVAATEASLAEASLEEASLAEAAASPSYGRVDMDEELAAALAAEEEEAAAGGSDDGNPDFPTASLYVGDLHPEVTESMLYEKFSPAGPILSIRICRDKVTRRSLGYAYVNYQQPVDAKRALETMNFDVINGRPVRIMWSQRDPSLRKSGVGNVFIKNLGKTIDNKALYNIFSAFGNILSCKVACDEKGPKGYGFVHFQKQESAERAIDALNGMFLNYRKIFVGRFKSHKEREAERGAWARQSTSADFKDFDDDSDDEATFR
| Sequence | 7-mer Z-score |
| --- | --- |
| AUGUUUC | -0.421 |
| AGUUCCA | -0.135 |
| CUUUUUC | -0.215 |
| GCCUUAU | -0.277 |
| ACGUUGU | -0.3 |
| UCCGGCG | -0.195 |
| AUGACCU | -0.188 |
| CCCAAAC | 0.0497 |

Set 4
Target: HLA class I histocompatibility antigen, A alpha chain, allele A*80:01 (Homo sapiens, UniProt P04439)
Observed: peptide-MHC binding
Form: peptide
Tested at: concentration not given
| Molecule | binding |
| --- | --- |
| ETESVNSNY | inactive |
| LSDLKKTIY | inactive |
| RVVRPWGSY | inactive |
| GVQGFIFFF | inactive |
| PLTNQRYRV | inactive |
| VVRVRRELL | inactive |
| YKDANISMY | inactive |
| NSESGNSRY | inactive |
| ELRQLAQSL | inactive |
| NYIDKVRFL | inactive |
| LPEAYQWHI | inactive |
| RAIMTTWTV | inactive |
| VLYHRYNLV | inactive |
| LTIVFVPEV | inactive |
| SIPFGLMSA | inactive |
| MANIFRGSY | inactive |
| LYAVTTAVL | inactive |
| GTEEIRSLF | inactive |
| RTFGQPLFF | inactive |
| AIDLDPVVY | inactive |
| NHDGIQAGV | inactive |
| RASHFRKLF | inactive |
| FFGETSHNY | inactive |
| RFNAIWFNH | inactive |
| RVHFHRFMY | active |

Set 5
Substitution: A175R
Target: ABI1, truncated, D143A, DHFR fusion (Arabidopsis thaliana)
Method: DHFR PCA, deep sequencing
Matrix: yeast
Notes: methotrexate growth selection, single substitutions
Reference: wild-type fitted maximum
Reading: higher = stronger binding
Parent: PYL1, truncated, DHFR fusion (Arabidopsis thaliana); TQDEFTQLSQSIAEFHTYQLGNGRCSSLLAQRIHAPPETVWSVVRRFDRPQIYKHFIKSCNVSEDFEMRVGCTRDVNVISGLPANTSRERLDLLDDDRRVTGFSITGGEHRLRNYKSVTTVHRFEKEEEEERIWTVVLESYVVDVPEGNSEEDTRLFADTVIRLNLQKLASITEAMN
| with | relative binding score [%] |
| --- | --- |
| (+)-ABA 710 µM | 102 |
| (+)-ABA 0 µM | 25.7 |
| (+)-ABA 0.39 µM | 44.2 |
| (+)-ABA 17 µM | 91 |
| (+)-ABA 4.8 µM | 76.4 |
| (+)-ABA 0.11 µM | 32.5 |

Single results of other studies
| SMILES | tested on | test | test system | setting | quantity | value |
| --- | --- | --- | --- | --- | --- | --- |
| Cc1cc(C)c(-n2ccn3nc(-c4cccnc4)cc23)cc1NC(=O)c1cc(C#N)cc(S(F)(F)(F)(F)F)c1 | Sodium-dependent serotonin transporter (SLC6A4, Homo sapiens, UniProt P31645) | binding, radioligand binding | – | 10 µM | inhibition | 11.1% |
| O=C1CCC(N2Cc3c(ccc4c3OCC43CCN(Cc4ccccc4)CC3)C2=O)C(=O)N1 (stereo not drawn) | – | – | male CD-1 mouse, plasma | oral, 3 mg/kg | MRT(0-inf) | 3.17 h |

Some of these lines once more (set 1):
| Sequence | log2 enrichment |
| --- | --- |
| UUCACAGGUAAGUGGGGCAGUGUCCGGACCAGUGGACGCAGCAGUGGCCUUGGCACCGAUGUGGGCUCCCGGCUAGCUGGCAGAGACGCG | -0.549 |
| UAACUUUAGAGGCGGAUCUGAUGGAUAUGGCAGUGGACGUGGAUUUGGGGAUGGCUAUAAUGGGUAUGGAGGAGGACCUGGAGGUGGCAA | -0.863 |
| UAACUUUAGAGGAGGAUCUGAUGGAUAUGGCAGUGGACGUGGAUUUGGGGAUGGCUAUAAUGGGUAUGGAGGAGGAUCUGGAGGUGGCAA | -0.264 |
| AAGUCCUGUGCUACACAUCGUAUGUACCGAAUCGGGGCCCCGGCCCCGGCCCCGGGGAAAGUAUUAUGUUACGCCGUUCGGAUCUGCACU | -0.819 |
| GUCCUGUGCUACACAUCGUAUGUACCGAAUCGGGGCCCCGGGGCCCCGGGGCCCCGGGGAAAGUAUUAUGUUACGCCGUUCGGAUCUGCA | -0.859 |
| CUGUGCUACACAUCGUAUGUACCGAAUCGGGGAAAAAAAGGGGAAAAAAAGGAAAAAAAGGGAAAGUAUUAUGUUACGCCGUUCGGAUCU | 0.147 |
| ACCAUGCAGGUGGGCAUCUUUGGGAAGUGGGGCAAGGGGGGGAUAGGGAGGGGGGUAACACUUUGUGAACAGGUGGUCCCAGGUCGUUUC | 1.04 |
| CCUGUGCUACACAUCGUAUGUACCGAAUCGGGUUUUUGGGAAAAAAAGGGAAAAAAAGGGAAAGUAUUAUGUUACGCCGUUCGGAUCUGC | -0.178 |
